Experimental data of several laboratories.
Lines come from different studies, so protocols differ. Values joined by “and” are separate records of one study, mostly repeats; a detail may differ. ± marks the error that the study gave.
ALB: Albumin (ALB, Homo sapiens, UniProt P02768)

For COc1cc(-c2cncc3c2CN(C)Cc2cc(N4CCNCC4)ccc2-3)cc(OC)c1OC, the remaining activity was 96% (Eukaryotic translation initiation factor 2-alpha kinase 1 (EIF2AK1, Homo sapiens, UniProt Q9BQI3); kinase activity; 1 µM, human enzyme, added: ATP 10 µM; reference: DMSO control).
With O=S(=O)(O)O the reaction velocity was 0.0291 µM/s and 0.0306 µM/s and 0.027 µM/s (GUK1 (Homo sapiens, UniProt Q16774); enzyme activity, NADH-coupled; 1 mM, added: ATP 15.62 µM).
COc1cccc(CNc2nc3ccc(C)cc3n3cnnc23)c1 has a displacement of 37 ± 1% (Adenosine receptor A2a (ADORA2A, Homo sapiens, UniProt P29274); binding, radioligand competition; 30 µM, added: [3H]ZM241385).
With CCCCCCCC(=O)c1cc(OC)c(OC)c(OC)c1CC(=O)OCC the activation was 0.74 fold (Retinoic acid receptor RXR-alpha (RXRA, Homo sapiens, UniProt P19793); reporter gene, Gal4 hybrid reporter; 10 µM; reference: vehicle).
For CCOc1ccc(NC(=O)O[C@@H](Cn2nc(C(C)C)cc2C(C)C)C(C)C)cc1, the maximum response was 18.8 ± 0.8 fold (Neuronal acetylcholine receptor; alpha4/beta2 (Homo sapiens, UniProt P17787+P43681); two-electrode voltage clamp; Xenopus oocytes; concentration not given, low-sensitivity stoichiometry, added: ACh 100 µM; reference: ACh alone).
The enthalpy change of C1CCCC1.C1CCCC1.[Cl][W][Cl] is reported as 1.42 kcal/mol (ALB; binding, van't Hoff fluorescence quenching; concentration not given).
With CC[C@@H]1[C@H](F)C(=O)N[C@@H]1COc1nccc2cc(C(N)=O)c(OC)cc12 the inhibition was 6.8% (Serine/threonine-protein kinase D2 (PRKD2, Homo sapiens, UniProt Q9BZL6); ATP-site probe binding, ActivX profiling, measured: PKD2; THP-1 cell lysate; 0.2 mM, Lys1 site).
COc1cc(-c2[o+]c3cc(O)cc(O)c3cc2O[C@@H]2O[C@H](CO)[C@@H](O)[C@H](O)[C@H]2O)ccc1O: “Gibbs free energy” -5.83 kcal/mol (ALB; binding, fluorescence quenching; 40 °C).
For CC(C)c1noc2ncc(C(=O)c3ccccc3O)cc12, the inhibition was 3.02% (Sodium channel protein type 3 subunit alpha (Scn3a, Rattus norvegicus, UniProt P08104); ion current, whole-cell patch-clamp; 10 µM, rNaV1.3).
O=c1nc(SCc2cc(F)cc(C(F)(F)F)c2)nc(SCc2ccc3nc(Cl)ccc3c2)[nH]1: “ATP hydrolysis rate” 1.81 µM/min and 2.48 µM/min (DNA topoisomerase 2-alpha (TOP2A, Homo sapiens, UniProt P11388); ATPase activity; 31.25 µM, added: ATP 2 mM).
With Nc1ncnc2c1ncn2[C@@H]1O[C@H](COP(=O)(O)CP(=O)(O)OP(=O)(O)O)[C@@H](O)[C@H]1O the calcium influx was 0% (P2X purinoceptor 1 (P2RX1, Homo sapiens, UniProt P51575, K215A); calcium influx; 3.16 nM; reference: ionomycin response).
c1ccc(-c2n[nH]cc2-c2ccnc3ccccc23)nc1: “log2 fold change” 0.946 (Carbon catabolite-derepressing protein kinase (SNF1, Candida albicans, UniProt P52497); kinase binding, competitor, MIB/MS competition, measured: SNF1; Candida albicans cell lysate; 100 nM; reference: DMSO).
The kcat of NCCCC[C@H](N)C(=O)Nc1ccc2ccccc2c1 is reported as 36 s⁻¹ (Puromycin-sensitive aminopeptidase (Rattus norvegicus, UniProt F1M9V7); substrate; MW 100 kDa).
CCCCCCC=O gave a relative fluorescence of 74.1% (uncharacterized protein (Spodoptera exigua, UniProt F1CEY0); binding, competitor, fluorescence displacement; 20 µM, pH 7.4, added: 1-NPN 20 µM; reference: 1-NPN alone).
Cc1cc(C(=O)NC[C@@H](N)C(=O)O)sc1-c1ccccc1Br gave a Hill slope of 1.39 (Glutamate receptor ionotropic, NMDA 1, with GluN2C (Grin1, Rattus norvegicus, UniProt P35439); added: glutamate 300 µM).

Repeated from above:
With Nc1ncnc2c1ncn2[C@@H]1O[C@H](COP(=O)(O)CP(=O)(O)OP(=O)(O)O)[C@@H](O)[C@H]1O the calcium influx was 0% (P2X purinoceptor 1 (P2RX1, Homo sapiens, UniProt P51575, K215A); calcium influx; 3.16 nM; reference: ionomycin response).
